# Results gathered from unrelated publications.
# Protocols differ between the studies behind these lines.
SMILES,method,matrix,time,pH,temperature,quantity,value
CCCCC(CC)COC(=O)CC(C(=O)OCC(CC)CCCC)S(=O)(=O)O.COC(=O)Nc1nc2cc(C(=O)c3ccc(F)cc3)ccc2[nH]1 (stereo not shown),,water,,,,solubility,< 1 µg/mL
C#CCCCC(=O)N[C@H]1CCOC1=O,NMR,water,,,20 °C,solubility,1100 µM
CC[C@H](C)[C@H](NC(=O)[C@H](C)NC(=O)CNC(=O)[C@H](Cc1ccccc1)NC(=O)[C@H](CC(N)=O)NC(=O)[C@H](CC(N)=O)NC(=O)[C@H](CO)NC(=O)[C@H](CO)NC(=O)[C@H](Cc1c[nH]cn1)NC(=O)[C@@H](NC(=O)[C@H](CC(C)C)NC(=O)[C@H](Cc1ccccc1)NC(=O)[C@H](CC(N)=O)NC(=O)[C@H](C)NC(=O)[C@H](CC(C)C)NC(=O)[C@H](CCCNC(=N)N)NC(=O)[C@H](CCC(N)=O)NC(=O)[C@@H](NC(=O)[C@H](C)NC(=O)[C@@H]1CSSC[C@H](NC(=O)[C@@H](N)CCCCN)C(=O)N[C@@H](CC(N)=O)C(=O)N[C@@H]([C@@H](C)O)C(=O)N[C@@H](C)C(=O)N[C@@H]([C@@H](C)O)C(=O)N1)[C@@H](C)O[C@H]1O[C@H](CO[C@]2(C(=O)O)C[C@H](O)[C@@H](NC(C)=O)[C@H]([C@H](O)[C@H](O)CO)O2)[C@H](O)[C@H](O[C@@H]2O[C@H](CO)[C@H](O)[C@H](O[C@]3(C(=O)O)C[C@H](O)[C@@H](NC(C)=O)[C@H]([C@H](O)[C@H](O)CO)O3)[C@H]2O)[C@H]1NC(C)=O)C(C)C)C(=O)N[C@@H](CC(C)C)C(=O)N[C@@H](CO)C(=O)N[C@@H](CO)C(=O)N[C@H](C(=O)N[C@@H](CC(N)=O)C(=O)N[C@H](C(=O)NCC(=O)N[C@@H](CO)C(=O)N[C@@H](CC(N)=O)C(=O)N[C@H](C(=O)N[C@@H](Cc1ccc(O)cc1)C(N)=O)[C@@H](C)O)C(C)C)[C@@H](C)O,,PBS,1 h,pH 7.4,,thermodynamic solubility,624 µg/mL
NC1CCN(C(=O)Oc2ccc(C3CCCC4(C3)OOC3(O4)C4CC5CC(C4)CC3C5)cc2)CC1 (racemic),,PBS,,pH 7.4,,kinetic solubility,11.5 µM
CC1COC2=C1C(=O)C(=O)c1c2ccc2c1C(OC(=O)CNC(=O)C(N)CO)CCC2(C)C (mixture of isomers),,PBS,,pH 6.4,25 °C,thermodynamic solubility,497 µg/mL
CC[C@H](C)[C@H](NC(=O)[C@H](C)NC(=O)CNC(=O)[C@H](Cc1ccccc1)NC(=O)[C@H](CC(N)=O)NC(=O)[C@H](CC(N)=O)NC(=O)[C@H](CO)NC(=O)[C@H](CO)NC(=O)[C@H](Cc1c[nH]cn1)NC(=O)[C@@H](NC(=O)[C@H](CC(C)C)NC(=O)[C@H](Cc1ccccc1)NC(=O)[C@H](CC(N)=O)NC(=O)[C@H](C)NC(=O)[C@H](CC(C)C)NC(=O)[C@H](CCCNC(=N)N)NC(=O)[C@H](CCC(N)=O)NC(=O)[C@@H](NC(=O)[C@H](C)NC(=O)[C@@H]1CSSC[C@H](NC(=O)[C@@H](N)CCCCN)C(=O)N[C@@H](CC(N)=O)C(=O)N[C@@H]([C@@H](C)O)C(=O)N[C@@H](C)C(=O)N[C@@H]([C@@H](C)O)C(=O)N1)[C@@H](C)O)C(C)C)C(=O)N[C@@H](CC(C)C)C(=O)N[C@@H](CO)C(=O)N[C@@H](CO)C(=O)N[C@H](C(=O)N[C@@H](CC(N)=O)C(=O)N[C@H](C(=O)NCC(=O)N[C@@H](CO)C(=O)N[C@@H](CC(N)=O)C(=O)N[C@H](C(=O)N[C@@H](Cc1ccc(O)cc1)C(N)=O)[C@@H](C)O)C(C)C)[C@@H](C)O[C@H]1O[C@H](CO)[C@H](O)[C@H](O[C@@H]2O[C@H](CO)[C@H](O)[C@H](O)[C@H]2O)[C@H]1NC(C)=O,,PBS,1 h,pH 7.4,,thermodynamic solubility,20 µg/mL
CC1COC2=C1C(=O)C(=O)c1c2ccc2c1C(OC(=O)CNC(=O)CN)CCC2(C)C (mixture of isomers),,PBS,,pH 4,25 °C,thermodynamic solubility,366 µg/mL
CC[C@H](C)[C@H](NC(=O)[C@H](C)NC(=O)CNC(=O)[C@H](Cc1ccccc1)NC(=O)[C@H](CC(N)=O)NC(=O)[C@H](CC(N)=O)NC(=O)[C@H](CO)NC(=O)[C@H](CO)NC(=O)[C@H](Cc1c[nH]cn1)NC(=O)[C@@H](NC(=O)[C@H](CC(C)C)NC(=O)[C@H](Cc1ccccc1)NC(=O)[C@H](CC(N)=O)NC(=O)[C@H](C)NC(=O)[C@H](CC(C)C)NC(=O)[C@H](CCCNC(=N)N)NC(=O)[C@H](CCC(N)=O)NC(=O)[C@@H](NC(=O)[C@H](C)NC(=O)[C@@H]1CSSC[C@H](NC(=O)[C@@H](N)CCCCN)C(=O)N[C@@H](CC(N)=O)C(=O)N[C@@H]([C@@H](C)O)C(=O)N[C@@H](C)C(=O)N[C@@H]([C@@H](C)O)C(=O)N1)[C@@H](C)O[C@H]1O[C@H](CO)[C@H](O)[C@H](O[C@@H]2O[C@H](CO)[C@H](O)[C@H](O)[C@H]2O)[C@H]1NC(C)=O)C(C)C)C(=O)N[C@@H](CC(C)C)C(=O)N[C@@H](CO)C(=O)N[C@@H](CO)C(=O)N[C@H](C(=O)N[C@@H](CC(N)=O)C(=O)N[C@H](C(=O)NCC(=O)N[C@@H](CO)C(=O)N[C@@H](CC(N)=O)C(=O)N[C@H](C(=O)N[C@@H](Cc1ccc(O)cc1)C(N)=O)[C@@H](C)O)C(C)C)[C@@H](C)O,,PBS,1 h,pH 7.4,,thermodynamic solubility,35 µg/mL
CC1COC2=C1C(=O)C(=O)c1c2ccc2c1C(OC(=O)CNC(=O)C(N)CCC(=O)O)CCC2(C)C (mixture of isomers),,PBS,,pH 6.4,25 °C,thermodynamic solubility,1700 µg/mL
CN1CCCCC1C(=O)NC(Cc1ccc(-c2ccccc2)cc1)B(O)O (stereo not shown),nephelometry,aqueous buffer,,pH 6.8,,solubility,> 200 µM

# Some of these lines once more:
SMILES,method,matrix,time,pH,temperature,quantity,value
CN1CCCCC1C(=O)NC(Cc1ccc(-c2ccccc2)cc1)B(O)O (stereo not shown),nephelometry,aqueous buffer,,pH 6.8,,solubility,> 200 µM
